Published values gathered from unrelated publications.
Organism: Candida albicans

SMILES	test	test system	setting	MIC
CC[C@H](C)[C@H](NC(=O)[C@H](Cc1c[nH]c2ccccc12)NC(=O)CNC(=O)[C@@H](N)CCCNC(=N)N)C(=O)N[C@@H](CCCNC(=N)N)C(=O)N[C@@H](Cc1c[nH]c2ccccc12)C(=O)N[C@@H](Cc1c[nH]c2ccccc12)C(N)=O	–	–	–	16 mg/L
CC(C)C[C@H](NC(=O)[C@H](Cc1c[nH]c2ccccc12)NC(=O)[C@H](CC(C)C)NC(=O)[C@@H](NC(=O)[C@H](CC(C)C)NC(=O)[C@H](CCCNC(=N)N)NC(=O)[C@@H](N)CCCNC(=N)N)[C@@H](C)O)C(=O)N[C@H](C(=O)N[C@@H](CC(C)C)C(=O)N[C@@H](CCCNC(=N)N)C(=O)N[C@@H](CCCNC(=N)N)C(N)=O)[C@@H](C)O	–	56214, fluconazole-resistant isolate, RPMI MOPS	48 h, 37 °C	4 µM
C#Cc1cccc(C=NNC(=O)c2ccc(Br)cc2)c1O	–	A39	48 h	1 mg/L
CC[C@H](C)[C@H](NC(=O)CN)C(=O)NCC(=O)N[C@@H](C)C(=O)N[C@H](C(=O)N[C@@H](CC(C)C)C(=O)N[C@@H](CCCCN)C(=O)N[C@H](C(=O)N[C@@H](CC(C)C)C(=O)N[C@H](C(=O)N[C@H](C(=O)NCC(=O)N[C@@H](CC(C)C)C(=O)N1CCC[C@H]1C(=O)N[C@@H](C)C(=O)N[C@@H](CC(C)C)C(=O)N[C@H](C(=O)N[C@@H](CO)C(=O)N[C@@H](Cc1c[nH]c2ccccc12)C(=O)N[C@H](C(=O)N[C@@H](CCCCN)C(=O)N[C@@H](CCCNC(=N)N)C(=O)N[C@@H](CCCCN)C(=O)N[C@@H](CCCNC(=N)N)C(=O)N[C@@H](CCC(N)=O)C(=O)N[C@@H](CCC(N)=O)C(N)=O)[C@@H](C)CC)[C@@H](C)CC)[C@@H](C)O)[C@@H](C)O)C(C)C)C(C)C	broth microdilution	fluconazole-resistant 56214, RPMI-1640	48 h, 30 °C	2 µM
C[C@H](NC(=O)[C@H](CCCNC(=N)N)NC(=O)[C@H](Cc1c[nH]c2ccccc12)NC(=O)[C@H](CCCNC(=N)N)NC(=O)[C@H](Cc1c[nH]c2ccccc12)NC(=O)[C@H](Cc1c[nH]c2ccccc12)NC(=O)[C@H](Cc1c[nH]c2ccccc12)NC(=O)[C@H](CCCNC(=N)N)NC(=O)[C@H](Cc1c[nH]c2ccccc12)NC(=O)[C@H](CCCNC(=N)N)NC(=O)CN)C(N)=O	broth microdilution	SP3902, RPMI 1640-MOPS	48 h, 30 °C	8 µM
OC(COc1ccc(-c2nnco2)cc1)CN1CCN(CC(O)COc2ccc(-c3nnco3)cc2)CC1 (stereo not shown)	–	DSY654 Cdr knockout	–	> 128 mg/L
CC[C@H](C)[C@H](NC(=O)CN)C(=O)NCC(=O)N[C@@H](C)C(=O)N[C@H](C(=O)N[C@@H](CC(C)C)C(=O)N[C@@H](CCCCN)C(=O)N[C@H](C(=O)N[C@@H](CC(C)C)C(=O)N[C@H](C(=O)N[C@H](C(=O)NCC(=O)N[C@@H](CC(C)C)C(=O)N1CCC[C@H]1C(=O)N[C@@H](C)C(=O)N[C@@H](CC(C)C)C(=O)N[C@H](C(=O)N[C@@H](CO)C(=O)N[C@@H](Cc1c[nH]c2ccccc12)C(=O)N[C@H](C(=O)N[C@@H](CCCCN)C(=O)N[C@@H](CCCNC(=N)N)C(=O)N[C@@H](CCCCN)C(=O)N[C@@H](CCCNC(=N)N)C(=O)N[C@@H](CCC(N)=O)C(=O)N[C@@H](CCC(N)=O)C(N)=O)[C@@H](C)CC)[C@@H](C)CC)[C@@H](C)O)[C@@H](C)O)C(C)C)C(C)C	broth microdilution	17546, RPMI 1640-MOPS	48 h, 30 °C	8 µM
CC[C@H](C)[C@H](NC(=O)CN)C(=O)N[C@@H](CC(C)C)C(=O)N[C@@H](C)C(=O)N[C@@H](C)C(=O)N[C@H](C(=O)N[C@@H](CCCCN)C(=O)N[C@@H](C)C(=O)N[C@H](C(=O)N[C@@H](C)C(=O)N[C@@H](CCCCN)C(=O)N[C@@H](C)C(=O)N[C@@H](C)C(=O)NCC(N)=O)[C@@H](C)CC)[C@@H](C)CC	–	ATCC 90029, RPMI MOPS	24 h, pH 7.0, 33 °C	128 mg/L
CC(C)C[C@H](NC(=O)[C@H](CCCNC(=N)N)NC(=O)[C@H](Cc1c[nH]c2ccccc12)NC(=O)[C@H](CCCNC(=N)N)NC(=O)[C@H](Cc1c[nH]c2ccccc12)NC(=O)[C@H](Cc1c[nH]c2ccccc12)NC(=O)[C@H](Cc1c[nH]c2ccccc12)NC(=O)[C@H](CCCNC(=N)N)NC(=O)[C@H](Cc1c[nH]c2ccccc12)NC(=O)[C@@H](N)CCCNC(=N)N)C(N)=O	broth microdilution	14936, RPMI 1640-MOPS	48 h, 30 °C	8 µM
CC[C@H](C)C[C@H](C)CCCCCCCCC(=O)N[C@H]1C[C@@H](O)[C@@H](NCCN)NC(=O)[C@@H]2[C@@H](O)CCN2C(=O)[C@H]([C@H](O)CCN)NC(=O)[C@H]([C@H](O)[C@@H](O)c2ccc(O)cc2)NC(=O)[C@@H]2C[C@@H](O)CN2C(=O)[C@H]([C@@H](C)O)NC1=O	EUCAST broth microdilution	clinical isolate, RPMI 1640 with MOPS	pH 7.0, 37 °C, 2% glucose	0.06 mg/L
